Assay results collected from several papers.
Each numbered part is a random draw from the data of one study; scales do not carry over between parts. Positions count from the first letter of the parent shown.

Set 1
Target: Fragile X messenger ribonucleoprotein 1, C-terminal low-complexity region (Fmr1, Mus musculus, UniProt P35922)
Technique: RNA Bind-n-Seq
Form: RNA
Matrix: in vitro
Concentration: 200 nM
Setting: whole 134-nt RNA, ends assumed
With: 150 mM LiCl
Reference: input library
Direction: higher = stronger binding
All molecules: 7-deaza-guanosine replaces G
All sequences stand within: GGGAGUUCUACAGUCCGACGAUC … UGGAAUUCUCGGGUGUCAAGG
| Oligonucleotide | log2 enrichment |
| --- | --- |
| UUGUUUUUUUUUUGUUCUUUUUUUCCAUGUCACUAAAGGCCCUCGGGACCAAGGAUCACGUCAUGACUCCGGUGAGUUCACACGUGGUGG | 1.57 |
| UCAAGUCCUGUGCUACACAUCGUAUGUACCGAAUCGGGGUUGGGUUGGGGUUGGGAAAGUAUUAUGUUACGCCGUUCGGAUCUGCACUUC | -1.03 |
| UGGCCCUGGUGGCAUGCGGGGAGGAAGAGGUGGCCUCAUGGAUCGUGGUGGUCCCGGUGCAAUGUUCAGAGGUGGCCGUGGUGGAGACAG | -0.905 |
| AAGUCCUGUGCUACACAUCGUAUGUACCGAAUCGGCCCCGGGGCCCCGGCCCCGGGGAAAGUAUUAUGUUACGCCGUUCGGAUCUGCACU | -3.07 |
| UGGCCCUGGUGGCAUGCGGGGAGGAAGAGGUGGCCUCAUGGAUCGUGGUGGUCCCGGUGGAAUGUUCAGAGGUGGCCGUGGUGGAGACAG | -0.675 |
| ACCAUGCAGGUGGGCAUCUUUGGGAAGUGGGGCAAGGGGGGGAUGGGGAGGGGGGUAACACUUUGGGAACAGGUGGUCCCAGGUCGUUUC | 1.45 |
| CCUGUGCUACACAUCGUAUGUACCGAAUCGGCCCCCCCGGGGCCCCCCCGGCCCCCCCGGGAAAGUAUUAUGUUACGCCGUUCGGAUCUG | -0.555 |
| ACCAUGCAGAAAGGCAUCUUUGGGAAGUGGGGCAAGGGGGGGAUAGGGAGGGGGGUAACACUUUGGGAACAGGUGGUCCCAGGUCGUUUC | 1.23 |
| AGUCCUGUGCUACACAUCGUAUGUACCGAAUCGGGUUUUUUUGGGUGGGUUUUUGGGAAAGUAUUAUGUUACGCCGUUCGGAUCUGCACU | -1.74 |
| AAGUCCUGUGCUACACAUCGUAUGUACCGAAUCGGAAAAAGGAAAAAGGAAAAAGGAAAGUAUUAUGUUACGCCGUUCGGAUCUGCACUU | -1.57 |
| ACCAUGCAGGUGGGCAUCUUUGGGAAGUGGGGCAAGGGGGGGAUAGGGAGGGGGGUAACACUUUGGGAACAGGUGGUCCCAGGUCGUUCC | 0.968 |

Set 2
Target: Hepatocyte nuclear factor 3-alpha (Foxa1, Mus musculus, UniProt P35582, residues 1-468, full length assumed)
Technique: EMSA with sequencing
Form: double-stranded DNA, one strand shown
Matrix: in vitro
Concentration: 10 and 20 nM
Setting: whole designed probe, mean of two concentrations, ends assumed
Reference: negative control set to 0
Direction: higher = stronger binding
All sequences stand within: GTGAGCGGTGCCCATTGATGGGGAAC … TTTCACTGGGATCGTGGGGAC
Residues (chain): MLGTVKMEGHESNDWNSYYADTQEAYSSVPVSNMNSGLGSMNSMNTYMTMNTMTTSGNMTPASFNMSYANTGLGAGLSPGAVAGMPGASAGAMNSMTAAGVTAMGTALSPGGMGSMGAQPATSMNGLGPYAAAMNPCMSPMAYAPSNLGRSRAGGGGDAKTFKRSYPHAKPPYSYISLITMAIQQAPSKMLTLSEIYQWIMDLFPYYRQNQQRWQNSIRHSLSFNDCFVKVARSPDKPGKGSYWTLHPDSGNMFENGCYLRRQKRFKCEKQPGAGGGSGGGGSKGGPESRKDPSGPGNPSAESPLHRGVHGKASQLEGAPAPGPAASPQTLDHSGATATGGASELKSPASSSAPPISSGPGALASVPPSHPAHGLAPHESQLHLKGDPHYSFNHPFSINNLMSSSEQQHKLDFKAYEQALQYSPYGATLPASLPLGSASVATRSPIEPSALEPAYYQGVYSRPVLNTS
| Oligonucleotide | normalised bound fraction [ratio] |
| --- | --- |
| ATCTTCCCCCTCTTCCTTGCCCCACCAGCTCACCTTCCCGGGTTATTTGCAGATAGGAAAATAAATAAAGCCGGCATTCGTTAACCCTCTTCACGCGCATACTGCTGTTTGCTCTGCATCTAACATGGTCCTTACGCGAGGCGTGGCTCCGGGAGAGCAAAGCACCGTGTCAGGCGCATGATCCGGGCTCGCC | 0.355 |
| AACAGAAACAGGCCAGCCAAATTACACAAGGACGTTTACTACAAAAACCTGAACCAGTGAGTAGCAATAAAGGGCTAGTTAAAAAGACTTCGGAAATTACATAGAACATGAATATGTGCATTATAAAGTTTGAGGTAGATCTATTTATGCCACTGTGGAATGATCTCGAAGATAAATAACTGACAAGCAAGAC | 0.133 |
| ATCTTCCCCCTCTTCCTTGCCCCACCAGCTCACCTTCCCGGGTTATTTGCAGATAGGAAAATAAATAAAGCCGGCATTCGTTAACGCAGTTCACGCGCATACTGCTGTTTGCTCTGGATGAATCATGGTCCTTTGGCGAGGCGTGGCTCCGGGAGAGCAAAGCACCGTGTCAGGGCCATGATCCGGGGTGGCC | 0.344 |
| AACAGGAAATTCCTGGCTATTTTACAGATATAAGTACAGAATTTAAATATTCAAGCTTGTGATGAAAAGCGGCAAGGTGGTCGCAGTGTACAATGTAAACAAGTAGCTTTGGAAATGAACAAAGTCCTTGAGTGTTTTTCTTTATTAAGAAAGAACTCTCTTTCATTCCTTCCTGAAACATGATCACAGGTCA | 0.406 |
| ATCTTCCCCCTCTTCCTTGCCCCACCAGCTCACCTTCCCGGGTTATTTGCACAAAGGAAAATAAATAAAGCCGGCATTCGTTAACGCAGTTCTGGCGCAAACTGCTGTTTGCTCTGCATCTAACATGGTCCTTACGCGACGCCAGGCTCCGGGAGAGCAAAGCACCGTGTCAGGCGCATGATCCGGGCTCGCC | 0.384 |
| ATAATCTGAGGTGGCGACTGGCCAGATAGCCTGCCCCTACTCACTCTGGCTGTAAAATAAGCCTACAGTATCCACAAGGGGAAATACTAACAGTGTAAACAAGCACATCAAGGTGCAGTCAAAGAAGCCAGGTCCCCACCGATGAGATGAAGAAAATAACCACCTAAGTCTCAGGTCCCTATATCTGCCTAAT | 0.32 |
| ACATTCTTTTTGTAATTATTCCAGGTCAAGATAGTGGCCAAAGAGGAAGTTATAAAGCAGACTAGGAAATTCTCCTAAATATATCTCCAACAGAGTAAACAAGAGATTAGGAAACTTGTCCTTCATTCAATTACACCTGGTAAACTTTTTACATTTCCCATTCTATTTTTTGCCTGTGATGTCTAAGTTGAAT | 0.319 |
| CCAGGTATTATCAGAGGGAGACAGGCAGGGAGCTCCCCAGTGAAGGCTCTAGAGCATCCCATAAAAGGATGAAGAGAGAGACAATCCACAAATGCAATTTTCTATTCAATTTTCATTCTATTATAGTTATATTCATAGTTAATACTGTATGAAAATGTTTATTATAGAGTCACCTGCAAGAGCAAAAATAAGA | 0.0388 |

Set 3
Target: RNA binding protein fox-1 homolog 2, RRM domain, GST-SBP tag (RBFOX2, Homo sapiens, UniProt O43251-10, residues 100-194)
Technique: RNA Bind-n-Seq
Form: RNA
Matrix: in vitro
Concentration: 365 nM
Setting: natural RNA segment, single round, ends assumed
Reference: no-protein control
Direction: higher = stronger binding
All sequences stand within: GGGAGUUCUACAGUCCGACGAUC … UGGAAUUCUCGGGUGCCAA
Target sequence (chain): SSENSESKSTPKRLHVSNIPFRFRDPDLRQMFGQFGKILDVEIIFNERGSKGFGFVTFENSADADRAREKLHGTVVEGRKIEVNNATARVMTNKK
| Oligonucleotide | RBNS enrichment (R) |
| --- | --- |
| UUGUUGUAAGCUAACAAGUGGAGAAACACUUUUUUUUUUCAGAAAUGGUUUGGAUUAUUUAUAGUCCAUUUGUAAAAAAUAUUACAUCAUCUAGUUAAAAAAAAGAGUGU | 0.412 |
| AGACUCUCGGGGCUGGUGCCAGUGCCCCAGGGGCCUCCUGGGCCACGGGCUGGAGGGGCUGCCCAGGGACCUUGGUCUCGAAGCCAUACGUGGUUGUCUGCUUUCCUAAG | 0.292 |
| GAACUGAUUUUAAUAAAAAUAUUCUGUGUAAAAAGUACUCAGAAAAACAUCUAAAGCUGUUGGAGAAGAGGGACUCAUAUAAAUAGUUGGAUUGCGUUUUGCUUUUUAUU | 1.44 |
| CGAAACGCUGGAUCCCCAAGGGUACAGUGUGGCCCAGUCCUCCCCCACCUCCAUGGUGGCCCAGGCUGCAGGGCUCACGGUGGGCCCACGGUGGAGGCCUCAGGCAGCUU | 0.215 |
| AGGGGGCCUGAGGACAGCCUUUUCCUCAGUCCUUGAGAUCAUUGCUCAUCCGUGCCAAACUGGGUAGAUGGGUUGGGAGACUCUCAAAAUGUGCCAAGGAUCCCCUACGU | 0.411 |
| GGUCAAGCGGGGCUAUGCCCGUCUGGCCCAAAACACAGUCCGUUAUUAACGAGAUGGCCCUGGCAGGCGGGAACAAAUCUGCCUCCAUGCACUGCUUCCUGUAGUCUUUU | 0.264 |
| UGGAGAAACCCUUCGCCAUUGCCAAGGAUAGAGAGCCUGGGGGACCUCAUCCCUCUAAGCAGCUGUCUGUGUGGGUCCUGUCAAUCCCCACACAGACGAAGGUAGCCAGU | 0.432 |
| CCACACUUCCAGGCUAUCUGAACUCCUGAAGCCCUAAAAAUAAAAAGCACAGUUGUAACUACCUGAAAUAUGAAGAUCCAGUUUCAUACAAACAUUUGUAUGACGUGAAU | 0.668 |
| AAGGGACGUGGGUUUGAAGGCAGCAGCAGUGCUUACUUAACCUGCAUUUCAGCAUUUGGCAAGUUCUCUCUUGCUGGCGUCAGAGUAGCUGGCCCAGCUCUUAGCUUGUU | 0.674 |
| UCACUUUGCCCAUUACGUCAGAAGUAAGUGUCUGGGUGUGGUAGUAUAAGUUUCUUAAGGAAUUGUCCUGCUGACCUGUAUCUAACUAAUGAACUUAAGGGUCUGGGUUU | 0.257 |
| AGAAUCUACGUCUGCCUCUGAAUGGACUUCCCACCUCCUCUCUCUUGCUCUGAUGCUUGCCUCUGGGCCUCUCCAUGCCCAAGGUGGUCUUUCAUCCUUGACAGGCUGGU | 1.16 |
| GCUCCUGAAGAAGCUGUCUUCCCAUUUUCCAUGCGCUGUGCUUAUGUGUGGUGGACUGCAGAGCUGCUUCCACUUACAGGAGAGCUGAUAAUUUGUUAGCUGGAACCUAU | 0.341 |

Set 4
Target: CCNB1, cyclin fold, Cln2 fusion (human)
Technique: yeast growth competition, sequencing
Matrix: yeast
Setting: weak parent motif
Reference: not given
Direction: higher = stronger binding
Starting sequence: SAMHD1 docking peptide (human); ASKSRVQLFKDDP
| Variant | normalised enrichment score |
| --- | --- |
| Q7E | -0.0289 |
| D11C | 0.366 |
| Q7L | 0.12 |
| K10V | 0.203 |
| S4N | 0.489 |
| L8Q | -0.0366 |
| D11Q | 0.265 |
| S4K | 0.242 |
| V6K | 0.345 |
| S2D | 0.167 |
| D12S | 0.204 |
| F9I | 0.65 |
| L8P | 0.293 |
| S4I | 1.94 |
| K10M | 0.264 |
| R5W | 0.616 |
| K3Y | 0.181 |
| K10A | 0.227 |

Set 5
Target: Histone acetyltransferase KAT6A, winged helix 1, GST fusion (KAT6A, Homo sapiens, UniProt Q92794, residues 1-85)
Technique: protein binding microarray
Form: double-stranded DNA, one strand shown
Matrix: in vitro
Concentration: not given
Setting: 8-mer, flanks averaged, mean of 2 arrays, mostly near background
Reference: not given
Direction: higher = stronger binding
Construct (chain): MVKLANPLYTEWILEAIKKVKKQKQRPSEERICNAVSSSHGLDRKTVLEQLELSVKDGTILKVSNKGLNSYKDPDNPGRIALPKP
| Oligonucleotide | E-score |
| --- | --- |
| CACGTTTA | -0.246 |
| CCGAGCAC | 0.0103 |
| ACGGTGTG | 0.0631 |
| AGACGATA | -0.182 |
| TCAATAGA | -0.212 |
| ATGCAAAT | -0.161 |
| CATCGTGG | -0.0204 |
| CCTCCTAA | -0.145 |
| GCAAAGGA | 0.0653 |
| AAGTCGTC | -0.0148 |
| CGGAACCG | 0.321 |
| AGAATCGG | 0.1 |
| AGGATCCA | -0.107 |
| GCTCTCCA | -0.263 |
| AATCTTGG | -0.105 |
| ATGTATGA | -0.159 |
| AGTGCTCC | 0.0539 |
| CAATTGGG | -0.189 |
| AAGTTAAC | -0.092 |
| GAGGGTGA | -0.111 |
| ATATGGCA | 0.0975 |
| CCAGCTTA | 0.0343 |
| CACAGGTA | -0.124 |
| ACCCAAAT | -0.1 |
| GCAGGAGA | -0.037 |
